Results from different studies.
A part holds a random share of what one study measured.

Block 1
Organism: SARS-CoV-2 Wuhan spike VSV pseudovirus
Effect on: pseudovirus entry
Concentration: 10 µM
SMILES | inhibition [%]
O=C(c1ccc(N2CC(O)C2)nc1)N1CCC(CCc2ccccc2)CC1 | 100
CC(Cc1c[nH]c2ccccc12)NC(=O)Cn1ccc2cc(Br)ccc21 (stereo not drawn) | 58
COc1cc(-n2ccnc2)cc(OC)c1OC | 100
O=C(c1csc2c1CCCC2)N1CCCC(CNS(=O)(=O)c2cccs2)C1 (stereo not drawn) | 81
CN1CCN(Cc2c(O)ccc3cc(-c4nc5ccccc5[nH]4)c(=O)oc23)CC1 | 94
Cc1cccc(NC(=O)CCC2CCN(C(=O)C3=NN(C)C(=O)CC3)CC2)c1 | 58

Mixed results
rep papain-like protease: Replicase polyprotein 1ab, papain-like protease (rep, Severe acute respiratory syndrome coronavirus 2, UniProt P0DTD1)
rep nsp14: Replicase polyprotein 1ab, nsp14 (rep, Severe acute respiratory syndrome coronavirus 2, UniProt P0DTD1)
rep nsp12 RdRp: Replicase polyprotein 1ab, nsp12 RdRp (rep, Severe acute respiratory syndrome coronavirus 2, UniProt P0DTD1)
SMILES | target | test | conditions | scale | measurement | value
CC(CC(=O)C[C@@H](C)[C@H]1CC(=O)[C@@]2(C)C3=C(C(=O)C[C@]12C)[C@@]1(C)CC[C@H](O)C(C)(C)[C@@H]1C[C@@H]3O)C(=O)O (stereo partly drawn) | rep papain-like protease | – | concentration not given, C111S mutant | reference: positive control | activity | 18.4%
O=C(NC1CCN(c2ncnc3[nH]cnc23)CC1)c1cccc(S(=O)(=O)N2CCC2)c1 | rep nsp14 | NSP14 enzyme activity, inhibitor | 200 µM | – | inhibition | 77.2%
NC(=O)C1=CN([C@@H]2O[C@H](COP(=O)([O-])OP(=O)([O-])OC[C@H]3O[C@@H](n4cnc5c(N)ncnc54)[C@H](O)[C@@H]3O)[C@@H](O)[C@H]2O)C=CC1.[Na+].[Na+] | rep nsp12 RdRp | binding, biolayer interferometry | concentration not given | – | BLI response | 0 nm
Nc1ncnc2c1ncn2[C@@H]1O[C@H](CSCC[C@H](N)C(=O)O)[C@@H](O)[C@H]1O | rep nsp14 | thermal shift | 62.5 µM | – | ΔTm | 8.7 °C
C[Se]C[C@H](N)C(=O)O | rep papain-like protease | – | concentration not given, C111S mutant | reference: positive control | activity | 24.1%
CCOc1nc2cccc(C(=O)OCc3oc(=O)oc3C)c2n1Cc1ccc(-c2ccccc2-c2noc(=O)[nH]2)cc1 | rep nsp12 RdRp | binding, biolayer interferometry | concentration not given | – | BLI response | -0.03 nm
